Assay results pooled from the literature.
Protocols differ between the studies behind these lines. ± marks the error that the study gave.

| Compound | assay | test system | setting | how to read | measurement | value |
| --- | --- | --- | --- | --- | --- | --- |
| Clc1ccc(Cl)c(-c2cc(Cl)c(Cl)cc2Cl)c1 |  | fresh water | 20 °C, SSP sampler, 100 µm |  | log K(PDMS-water) | 5.97 ± 0.02 |
| CN1CC[C@]23c4c5ccc(O)c4O[C@H]2[C@@H](O)C=C[C@@]3(O)[C@H]1C5 |  |  |  |  | log k amino protonation | 9.58 |
| COc1ccnc(C(=O)N[C@H]2COC(=O)[C@H](Cc3ccccc3)[C@@H](OC(=O)C(C)C)[C@H](C)OC2=O)c1OCOC(=O)C(C)C |  |  | pH 9, 20 °C |  | log Kow | 4.3 |
| CN1CCN(C(=O)Oc2cccc3c2[n+]([O-])c2cc(Cl)c(Cl)cc2[n+]3[O-])CC1 | PAMPA | artificial membrane in PBS | 50 µM, 5 h |  | log effective permeability | -4.97 |
| CN1CC[C@]23c4c5ccc(O)c4O[C@H]2[C@@H](O)CC[C@@]3(O)[C@H]1C5 |  |  |  |  | log k amino protonation | 10 |
| Cc1cc2c(cc1C)[n+]([O-])c1c(OC(=O)N3CCCC3)cccc1[n+]2[O-] | PAMPA | artificial membrane in PBS | 50 µM, 5 h |  | log effective permeability | -4.85 |
| CC[C@H](C)[C@H](NC(C)=O)C(=O)N[C@H]1CSSC[C@@H](C(=O)N[C@H](C(N)=O)[C@@H](C)O)NC(=O)[C@H](CCCNC(=N)N)NC(=O)[C@H](Cc2cnc[nH]2)NC(=O)[C@H](Cc2cccc3ccccc23)NC(=O)CNC(=O)[C@H](Cc2c[nH]c3ccccc23)NC(=O)[C@H](CC(=O)O)NC(=O)[C@H](CCC(N)=O)NC(=O)[C@H](Cc2c[nH]c3ccccc23)NC(=O)[C@H](C(C)C)NC1=O | isocratic RP-HPLC | C18 column | pH 7.4, 25 °C, elution method 2 | higher = more lipophilic | log retention factor | 0.699 |
| c1cc2ccc3ccc4ccc5cccc6c(c1)c2c3c4c56 |  | fresh water | 12 (unit not given), 20 °C, SSP sampler, 100 µm |  | log K(PDMS-water) | 5.19 ± 0.15 |
| [O-][n+]1c2ccccc2[n+]([O-])c2c(O)cccc21 | PAMPA | artificial membrane in PBS | 50 µM, 5 h |  | log effective permeability | -4.74 |
| c1ccc2c(c1)-c1ccc3ccc4cccc5cc-2c1c3c45 |  | fresh water | 20 °C, S100 sampler, 100 µm |  | log K(PDMS-water) | 5.57 ± 0.05 |
| CC[C@H](C)[C@H](NC(=O)[C@H](CCCNC(=N)N)NC(=O)[C@H](CCC(=O)O)NC(C)=O)C(=O)N[C@H]1CSSC[C@@H](C(=O)N[C@H](C(N)=O)[C@@H](C)O)NC(=O)[C@H](CCCNC(=N)N)NC(=O)[C@H](Cc2c[nH]cn2)NC(=O)[C@H](C)NC(=O)CNC(=O)[C@H](Cc2c[nH]c3ccccc23)NC(=O)[C@H](CC(=O)O)NC(=O)[C@H](CCC(N)=O)NC(=O)[C@H](Cc2c[nH]c3ccccc23)NC(=O)[C@H](C(C)C)NC1=O | isocratic RP-HPLC, C18 | 32% acetonitrile, phosphate pH 7.4, 1% TFA | 25 °C |  | log retention factor | -0.499 |
| Clc1cc(Cl)cc(-c2cc(Cl)ccc2Cl)c1 |  | fresh water | 20 °C, S30-2 sampler, 30 µm |  | log K(PDMS-water) | 5.75 ± 0.01 |
| COc1ccc2c3c1O[C@H]1[C@@H](O)C=C[C@@]4(O)[C@@H](C2)N(C)CC[C@]314 | potentiometric titration | methanol/water, extrapolated to water |  |  | log K | 9.21 |
| Clc1ccc(Cl)c(-c2ccccc2Cl)c1 |  | fresh water | 20 °C, S30-2 sampler, 30 µm |  | log K(PDMS-water) | 5.04 |
| CC[C@H](C)[C@H](NC(=O)[C@H](CO)NC(=O)[C@H](CCCNC(=N)N)NC(C)=O)C(=O)N[C@H]1CSSC[C@@H](C(=O)N[C@H](C(N)=O)[C@@H](C)O)NC(=O)[C@H](CCCNC(=N)N)NC(=O)[C@H](Cc2c[nH]cn2)NC(=O)[C@H](Cc2cccc3ccccc23)NC(=O)CNC(=O)[C@H](Cc2c[nH]c3ccccc23)NC(=O)[C@H](CC(=O)O)NC(=O)[C@H](CCC(N)=O)NC(=O)[C@H](Cc2cccc3ccccc23)NC(=O)[C@H](C(C)C)NC1=O | isocratic RP-HPLC | C18 column | pH 7.4, 25 °C, elution method 2 | higher = more lipophilic | log retention factor | 0.85 |
| CN1CC[C@]23c4c5ccc(O)c4O[C@H]2[C@@H](O)CC[C@H]3[C@H]1C5 |  |  | phenolate site |  | log k protonation constant | 9.49 |
| CC[C@H](C)[C@H](NC(C)=O)C(=O)N[C@H]1CSSC[C@@H](C(=O)N[C@H](C(N)=O)[C@@H](C)O)NC(=O)[C@H](CCCNC(=N)N)NC(=O)[C@H](Cc2c[nH]cn2)NC(=O)[C@H](Cc2cccc3ccccc23)NC(=O)CNC(=O)[C@H](Cc2c[nH]c3ccccc23)NC(=O)[C@H](CC(=O)O)NC(=O)[C@H](CCC(N)=O)NC(=O)[C@H](Cc2cn(C)c3ccccc23)NC(=O)[C@H](C(C)C)NC1=O | isocratic RP-HPLC, C18 | 32% acetonitrile, phosphate pH 7.4, 1% TFA | 25 °C |  | log retention factor | 1.01 |
| CCOP(=S)(OCC)Oc1cc(C)nc(C(C)C)n1 | SPME sorption isotherm | PBS |  |  | log Freundlich coefficient | 2.58 |
| CC[C@H](C)[C@H](NC(C)=O)C(=O)N[C@H]1CSSC[C@@H](C(=O)N[C@H](C(N)=O)[C@@H](C)O)NC(=O)[C@H](CCCNC(=N)N)NC(=O)[C@H](Cc2c[nH]cn2)NC(=O)[C@@](C)(CC)NC(=O)CNC(=O)[C@H](Cc2c[nH]c3ccccc23)NC(=O)[C@H](CC(=O)O)NC(=O)[C@H](CCC(N)=O)NC(=O)[C@H](Cc2c[nH]c3ccccc23)NC(=O)[C@H](C(C)C)NC1=O | isocratic RP-HPLC, C18 | 32% acetonitrile, phosphate pH 7.4, 1% TFA | 25 °C |  | log retention factor | 0.117 |
| Clc1ccc(-c2ccc(Cl)cc2Cl)cc1 |  | fresh water | 20 °C, S30-2 sampler, 30 µm |  | log K(PDMS-water) | 5.26 ± 0.01 |
| COc1cccc2c1[n+]([O-])c1cccc(OC(=O)N3CCCC3)c1[n+]2[O-] | PAMPA | artificial membrane in PBS | 50 µM, 5 h |  | log effective permeability | -5.1 |
| Clc1cc(Cl)c(-c2cc(Cl)ccc2Cl)c(Cl)c1 |  | fresh water | 20 °C |  | log K(PDMS-water) | 6.02 ± 0.04 |
| CC(=O)N[C@@H](CC(N)=O)C(=O)N[C@@H](CC(N)=O)C(=O)N[C@@H](CC(C)C)C(=O)N[C@H]1CSSC[C@@H](C(=O)N[C@H](C(N)=O)[C@@H](C)O)NC(=O)[C@H](CCCNC(=N)N)NC(=O)[C@H](Cc2c[nH]cn2)NC(=O)[C@H](Cc2cccc3ccccc23)NC(=O)CNC(=O)[C@H](Cc2c[nH]c3ccccc23)NC(=O)[C@H](CC(=O)O)NC(=O)[C@H](CCC(N)=O)NC(=O)[C@H](Cc2cccc3ccccc23)NC(=O)[C@H](C(C)C)NC1=O | isocratic RP-HPLC | C18 column | pH 7.4, 25 °C, elution method 2 | higher = more lipophilic | log retention factor | 0.771 |
| Clc1cc(Cl)c(-c2cc(Cl)c(Cl)cc2Cl)cc1Cl |  | fresh water | 20 °C, S100 sampler, 100 µm |  | log K(PDMS-water) | 6.42 ± 0.06 |
| CC(=O)N[C@@H](CC(N)=O)C(=O)N[C@@H](CC(N)=O)C(=O)N[C@@H](CC(C)C)C(=O)N[C@H]1CSSC[C@@H](C(=O)N[C@H](C(N)=O)[C@@H](C)O)NC(=O)[C@H](CCCNC(=N)N)NC(=O)[C@H](Cc2c[nH]cn2)NC(=O)[C@H](C)NC(=O)CNC(=O)[C@H](Cc2c[nH]c3ccccc23)NC(=O)[C@H](CC(=O)O)NC(=O)[C@H](CCC(N)=O)NC(=O)[C@H](Cc2c[nH]c3ccccc23)NC(=O)[C@H](C(C)C)NC1=O | isocratic RP-HPLC | C18 column | pH 7.4, 25 °C, elution method 2 | higher = more lipophilic | log retention factor | -0.402 |
| O=C(Oc1cccc2c1[n+]([O-])c1ccccc1[n+]2[O-])N1CCCC1 | PAMPA | artificial membrane in PBS | 50 µM, 5 h |  | log effective permeability | -4.91 |
| Nc1cnn(-c2ccccc2)c(=O)c1Cl | SPME sorption isotherm | PBS |  |  | log Freundlich coefficient | 1.18 |
| CC[C@H](C)[C@H](NC(C)=O)C(=O)N[C@H]1CSSC[C@@H](C(=O)N[C@H](C(N)=O)[C@@H](C)O)NC(=O)[C@H](CCCNC(=N)N)NC(=O)[C@H](Cc2cnc[nH]2)NC(=O)[C@H](C)NC(=O)CNC(=O)[C@H](Cc2c[nH]c3ccccc23)NC(=O)[C@H](CC(=O)O)NC(=O)[C@H](CCC(N)=O)NC(=O)[C@H](Cc2c[nH]c3ccccc23)NC(=O)[C@H](C(C)C)NC1=O | isocratic RP-HPLC | C18 column | pH 7.4, 25 °C, elution method 2 | higher = more lipophilic | log retention factor | -0.018 |

Repeated from above:
| Compound | assay | test system | setting | how to read | measurement | value |
| --- | --- | --- | --- | --- | --- | --- |
| CC[C@H](C)[C@H](NC(=O)[C@H](CCCNC(=N)N)NC(=O)[C@H](CCC(=O)O)NC(C)=O)C(=O)N[C@H]1CSSC[C@@H](C(=O)N[C@H](C(N)=O)[C@@H](C)O)NC(=O)[C@H](CCCNC(=N)N)NC(=O)[C@H](Cc2c[nH]cn2)NC(=O)[C@H](C)NC(=O)CNC(=O)[C@H](Cc2c[nH]c3ccccc23)NC(=O)[C@H](CC(=O)O)NC(=O)[C@H](CCC(N)=O)NC(=O)[C@H](Cc2c[nH]c3ccccc23)NC(=O)[C@H](C(C)C)NC1=O | isocratic RP-HPLC, C18 | 32% acetonitrile, phosphate pH 7.4, 1% TFA | 25 °C |  | log retention factor | -0.499 |
| CC[C@H](C)[C@H](NC(C)=O)C(=O)N[C@H]1CSSC[C@@H](C(=O)N[C@H](C(N)=O)[C@@H](C)O)NC(=O)[C@H](CCCNC(=N)N)NC(=O)[C@H](Cc2cnc[nH]2)NC(=O)[C@H](Cc2cccc3ccccc23)NC(=O)CNC(=O)[C@H](Cc2c[nH]c3ccccc23)NC(=O)[C@H](CC(=O)O)NC(=O)[C@H](CCC(N)=O)NC(=O)[C@H](Cc2c[nH]c3ccccc23)NC(=O)[C@H](C(C)C)NC1=O | isocratic RP-HPLC | C18 column | pH 7.4, 25 °C, elution method 2 | higher = more lipophilic | log retention factor | 0.699 |
| Cc1cc2c(cc1C)[n+]([O-])c1c(OC(=O)N3CCCC3)cccc1[n+]2[O-] | PAMPA | artificial membrane in PBS | 50 µM, 5 h |  | log effective permeability | -4.85 |
